# Results collected from several papers.
# Parts stem from different laboratories: compare values within a part only.

# Study 1
# Target: Centromere-binding protein 1, full length, N-terminal tag (CBF1, Saccharomyces cerevisiae, UniProt P17106, residues 1-351)
# UniProt P17106, sequence (whole entry, looked up): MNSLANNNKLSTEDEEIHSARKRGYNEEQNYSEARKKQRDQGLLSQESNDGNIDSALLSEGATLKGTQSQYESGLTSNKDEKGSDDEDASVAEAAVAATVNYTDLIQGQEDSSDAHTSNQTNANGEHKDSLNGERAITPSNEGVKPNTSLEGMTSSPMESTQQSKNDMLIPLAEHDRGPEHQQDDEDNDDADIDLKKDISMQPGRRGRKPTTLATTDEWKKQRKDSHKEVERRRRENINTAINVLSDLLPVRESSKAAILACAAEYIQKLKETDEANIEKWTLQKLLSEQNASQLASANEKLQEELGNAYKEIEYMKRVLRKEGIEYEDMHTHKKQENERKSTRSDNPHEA
# Technique: protein-binding microarray
# Molecule type: double-stranded DNA, one strand shown
# Sample: in vitro
# Concentration: 0.8 µM
# Notes: whole 60-bp probe, no competitor
# Direction: higher = stronger binding
# Shared flanks, not repeated: … GTCTTGATTCGCTTGACGCTGCTG
Oligonucleotide,fluorescence intensity [a.u.]
TGTACGAAGCTATATCACCATCGTATAGTAGTTAGG,503
GAATAAAAATGTTCACGTGTGACTGCTCCATTTTAG,3740
CTAGCTGTTATACTATTCGTGATCCAGGGCAAATTC,573
TGTACGAAGCTATATCAACTGAATATAGTAGTTAGG,520
GAACGTTTACAGCCATGTGAGGCAGTTACTTCTTAG,644
TGTACGAAGCTATATCACAAAAATATAGTAGTTAGG,614
GAACGTCAACATTCAGTGATGATGATCGTTCGGTAG,496
CTACAGGGCTCAGAGCGCATCACGATCGGGAGTTTC,527

# Study 2
# Cell line: HEK-293T
# Read-out: pseudovirus infection
# Technique: FDA-approved drug library screen
# Organism: VSV pseudotyped with SARS-CoV-2 spike
# Concentration: 10 µM
# Time: 16 h
# Baseline: vehicle-treated
SMILES,GFP-positive cells [%]
CCCSc1ccc2nc(NC(=O)OC)[nH]c2c1,22.3
CN(CCOc1ccc(CC2SC(=O)NC2=O)cc1)c1ccccn1 (centres unmarked),114
Cc1cccn2c(=O)c(-c3nnn[nH]3)cnc12,97.4

# Study 3
# Target: Sal-like protein 4, full length isoform B (SALL4, Homo sapiens, UniProt Q9UJQ4-2, residues 1-616)
# Technique: universal PBM
# Molecule type: double-stranded DNA, one strand shown
# Sample: in vitro
# Concentration: not given
# Notes: 8-mer, flanks averaged, mean of replicates
# Direction: higher = stronger binding
Oligonucleotide,E-score
CGAAACCC,-0.316
AAGCCCCC,-0.352
CGGCCCCA,-0.28
ACGGGAAT,0.0849
TCTGAGAA,0.0732
AACCCGGC,-0.28
CGACGAAA,0.144
CGCACCCC,-0.26

# Study 4
# Target: Replicase polyprotein 1ab, 3C-like proteinase (rep, Middle East respiratory syndrome-related coronavirus, UniProt K9N7C7)
# Read-out: enzyme activity
# Action: inhibitor
# Organism: MERS-CoV
# Concentration: 10 µM
SMILES,inhibition
CC(=O)[O][Hg][c]1ccccc1,4%
O=C(O[C@@H]1Cc2c(O)cc(O)cc2O[C@@H]1c1cc(O)c(O)c(O)c1)c1cc(O)c(O)c(O)c1,16%
CCC(C)SSc1ncc[nH]1 (centres unmarked),62.5%
CC[C@H](CO)Nc1nc(NCc2ccc(-c3ccccn3)cc2)c2ncn(C(C)C)c2n1,4%

# Study 5
# Target: Interferon regulatory factor 3, full length, phosphomimetic (IRF3, Homo sapiens, UniProt Q14653, residues 1-427, S386D/S396D/S398D/S402D/T404D/S405D)
# UniProt Q14653, sequence (whole entry, unmodified, looked up): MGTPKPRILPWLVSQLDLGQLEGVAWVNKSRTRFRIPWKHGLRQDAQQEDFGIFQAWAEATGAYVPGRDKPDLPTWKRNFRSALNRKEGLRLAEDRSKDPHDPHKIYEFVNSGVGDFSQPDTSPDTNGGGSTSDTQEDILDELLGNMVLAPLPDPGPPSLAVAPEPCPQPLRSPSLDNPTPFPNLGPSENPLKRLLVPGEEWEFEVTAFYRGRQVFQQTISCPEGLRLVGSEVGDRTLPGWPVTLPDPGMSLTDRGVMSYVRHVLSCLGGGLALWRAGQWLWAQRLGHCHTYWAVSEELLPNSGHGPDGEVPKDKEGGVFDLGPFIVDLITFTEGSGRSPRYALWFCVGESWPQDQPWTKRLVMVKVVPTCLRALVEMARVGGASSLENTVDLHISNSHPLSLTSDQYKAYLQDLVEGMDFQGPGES
# Technique: protein-binding microarray
# Molecule type: double-stranded DNA, one strand shown
# Sample: in vitro
# Concentration: 2540 nM top
# Notes: 60-bp whole probe
# Together with: salmon DNA 0.4 mg/ml
# Baseline: random background probes
# Direction: higher = stronger binding
# Shared flanks, not repeated: GCCTAGCAC … GTCTTGATTCGCTTGACGCTGCTG
Oligonucleotide,fitted relative affinity [z-score]
TTAGATATCGGGTATCGACTAGTGCTA,-0.0695
TCATTTTTTTTCATCATACTGTGCTAG,1.23
GACGGTTTCCTTTCCCTCACGTGCTAG,10
TTAGGTATCGACTTTCGATTAGTGCTA,1.49
GACGTTTTCAGTTCCGAGACGTGCTAG,3.49
TCACTGCTCCTTCTGACACTGTGCTAG,0.596
TCATATACACTTATGACACTGTGCTAG,0.882
GCTATTTTTAGGATGGGCTAGTGCTAG,0.498

# Study 6
# Target: Replicase polyprotein 1ab, nsp13 helicase (rep, Severe acute respiratory syndrome coronavirus 2, UniProt P0DTD1)
# Action: inhibitor
# Concentration: 20 µM
Structure (SMILES),inhibition [%]
CCC(=O)O[C@]1(C(=O)COC(C)=O)CC[C@H]2[C@@H]3C[C@H](C)C4=CC(=O)C=C[C@]4(C)[C@H]3[C@@H](O)C[C@@]21C,7.07
CC[C@H]1OC(=O)[C@H](C)C(=O)[C@H](C)[C@@H](O[C@@H]2O[C@H](C)C[C@H](N(C)C)[C@H]2O)[C@](C)(OC)C[C@@H](C)C(=O)[C@H](C)[C@H]2N(CCCCn3cnc(-c4cccnc4)c3)C(=O)O[C@]12C,9.65
C=C1CC[C@H](O)C/C1=C/C=C1\CCC[C@]2(C)[C@@H]([C@H](C)CCCC(C)C)CC[C@@H]12,-12
CCOc1ccccc1OCCN[C@H](C)Cc1ccc(OC)c(S(N)(=O)=O)c1,0.8
Cc1noc(-c2ccc(-c3ccc(CC(=O)O)cc3)cc2)c1NC(=O)O[C@H](C)c1ccccc1,-4.76
CCOc1nc2c(N)ncnc2n1CC,-0.46
CC1Cc2ccccc2N1NC(=O)c1ccc(Cl)c(S(N)(=O)=O)c1 (centres unmarked),2.69
CC(C)Cc1ccc(C(C)C(=O)NCCO)cc1 (centres unmarked),4.63
O=C(O)c1ccc(-n2nc(-c3ccccc3O)nc2-c2ccccc2O)cc1,-3.69
O=C1Nc2ccc(Cl)c3c2C1(CCCCN1CC=C(c2ccc(Cl)cc2)CC1)CCC3 (centres unmarked),4.1
CNC(=O)c1c(-c2ccc(F)cc2)oc2cc(N(CCO)S(C)(=O)=O)c(C3CC3)cc12,-3.35
CO[C@@]1(NC(=O)Cc2cccs2)C(=O)N2C(C(=O)O)=C(COC(N)=O)CS[C@@H]21,6.27
CC1(C)OC2(C)C(O)CC1CC2O (centres unmarked),-1.95
CC(C)CC(=O)Nc1n[nH]c2c1CN(C(=O)C1CCN(C)CC1)C2(C)C,-1.84
CC(=O)Oc1c(C)cccc1C(=O)O,-0.06
CCOc1cc(N2CCC(O)CC2)ccc1Nc1ncc2c(n1)N(C)c1ccccc1C(=O)N2C,9.45
CC1=C(CC(=O)O)c2cc(F)ccc2/C1=C\c1ccc(S(C)(=O)=O)cc1,54.8
O=C(NC(Cc1cc(=O)[nH]c2ccccc12)C(=O)O)c1ccc(Cl)cc1 (centres unmarked),1.88
CCC(O)(CC(N)=O)c1ccccc1 (centres unmarked),0.08
NC(N)=NCCC[C@H](NC(=O)c1sccc1NS(=O)(=O)c1cccc2nsnc12)C(=O)O,2.09
O=c1c(O)c(-c2ccc(O)c(O)c2)oc2cc(O)cc(O)c12,18.7
COc1cc(N)c(Cl)cc1C(=O)OCCN1CCCCC1,4.4
CCCCCN(CCCOC)C(=O)[C@@H](CCC(=O)O)NC(=O)c1ccc(Cl)c(Cl)c1,-0.84
Cc1ccc(NC(=O)C2(c3ccc4c(c3)OC(F)(F)O4)CC2)nc1-c1cccc(C(=O)O)c1,-1.31
COc1cc(SC)ccc1C(=O)N1CCC(Cc2ccccc2)CC1,3.99

# Some of these lines once more (study 5):
Oligonucleotide,fitted relative affinity [z-score]
GACGTTTTCAGTTCCGAGACGTGCTAG,3.49
TTAGATATCGGGTATCGACTAGTGCTA,-0.0695
GACGGTTTCCTTTCCCTCACGTGCTAG,10
GCTATTTTTAGGATGGGCTAGTGCTAG,0.498
TTAGGTATCGACTTTCGATTAGTGCTA,1.49
TCACTGCTCCTTCTGACACTGTGCTAG,0.596
